Measured values pooled from the literature.
Compare with care: the assays were run in different laboratories. ± gives the spread as reported.
Action: agonist
Thyrotropin-releasing hormone receptor: Thyrotropin-releasing hormone receptor (Mus musculus, UniProt P21761)
Sequence of UniProt P21761 (whole entry, looked up): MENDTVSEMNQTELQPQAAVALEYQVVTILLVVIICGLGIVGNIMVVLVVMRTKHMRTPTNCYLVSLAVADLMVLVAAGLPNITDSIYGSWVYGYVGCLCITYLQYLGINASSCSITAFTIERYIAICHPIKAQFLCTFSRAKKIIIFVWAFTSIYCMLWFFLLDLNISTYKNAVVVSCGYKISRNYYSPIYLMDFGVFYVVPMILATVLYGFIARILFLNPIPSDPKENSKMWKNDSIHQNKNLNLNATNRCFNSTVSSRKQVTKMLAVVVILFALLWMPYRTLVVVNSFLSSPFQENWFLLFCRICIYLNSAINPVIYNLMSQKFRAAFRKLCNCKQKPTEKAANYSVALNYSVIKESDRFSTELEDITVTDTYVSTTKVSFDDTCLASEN
CXCR4: C-X-C chemokine receptor type 4 (CXCR4, Homo sapiens, UniProt P61073)
FFAR3: Free fatty acid receptor 3 (FFAR3, Homo sapiens, UniProt O14843)
Sequence of UniProt O14843 (whole entry, looked up): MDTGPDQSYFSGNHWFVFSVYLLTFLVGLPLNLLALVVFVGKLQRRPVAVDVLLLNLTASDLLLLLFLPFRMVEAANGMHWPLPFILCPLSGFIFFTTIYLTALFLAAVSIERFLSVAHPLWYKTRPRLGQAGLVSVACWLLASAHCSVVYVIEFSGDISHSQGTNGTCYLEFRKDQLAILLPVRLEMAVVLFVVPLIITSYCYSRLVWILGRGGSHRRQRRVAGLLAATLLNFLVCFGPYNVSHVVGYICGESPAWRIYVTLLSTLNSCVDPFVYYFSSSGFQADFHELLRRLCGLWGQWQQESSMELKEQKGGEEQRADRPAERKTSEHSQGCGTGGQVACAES
NR1H2 ligand-binding domain: Oxysterols receptor LXR-beta, ligand-binding domain (NR1H2, Homo sapiens, UniProt P55055)
Sequence of UniProt P55055 (whole entry, looked up): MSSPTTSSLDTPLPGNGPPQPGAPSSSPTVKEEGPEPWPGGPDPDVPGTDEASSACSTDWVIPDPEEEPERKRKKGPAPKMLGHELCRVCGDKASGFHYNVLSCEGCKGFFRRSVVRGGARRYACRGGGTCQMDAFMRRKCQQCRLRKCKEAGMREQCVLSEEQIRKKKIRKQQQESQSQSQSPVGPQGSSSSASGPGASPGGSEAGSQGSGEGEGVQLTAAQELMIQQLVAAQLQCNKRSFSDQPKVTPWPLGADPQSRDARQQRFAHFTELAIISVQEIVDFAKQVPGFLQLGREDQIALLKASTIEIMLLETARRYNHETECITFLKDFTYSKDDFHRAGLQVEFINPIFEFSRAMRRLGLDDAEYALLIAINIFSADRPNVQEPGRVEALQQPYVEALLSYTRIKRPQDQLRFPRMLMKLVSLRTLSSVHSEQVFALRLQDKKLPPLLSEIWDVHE
PTH1R: Parathyroid hormone/parathyroid hormone-related peptide receptor (PTH1R, Homo sapiens, UniProt Q03431)
Sequence of UniProt Q03431 (whole entry, looked up): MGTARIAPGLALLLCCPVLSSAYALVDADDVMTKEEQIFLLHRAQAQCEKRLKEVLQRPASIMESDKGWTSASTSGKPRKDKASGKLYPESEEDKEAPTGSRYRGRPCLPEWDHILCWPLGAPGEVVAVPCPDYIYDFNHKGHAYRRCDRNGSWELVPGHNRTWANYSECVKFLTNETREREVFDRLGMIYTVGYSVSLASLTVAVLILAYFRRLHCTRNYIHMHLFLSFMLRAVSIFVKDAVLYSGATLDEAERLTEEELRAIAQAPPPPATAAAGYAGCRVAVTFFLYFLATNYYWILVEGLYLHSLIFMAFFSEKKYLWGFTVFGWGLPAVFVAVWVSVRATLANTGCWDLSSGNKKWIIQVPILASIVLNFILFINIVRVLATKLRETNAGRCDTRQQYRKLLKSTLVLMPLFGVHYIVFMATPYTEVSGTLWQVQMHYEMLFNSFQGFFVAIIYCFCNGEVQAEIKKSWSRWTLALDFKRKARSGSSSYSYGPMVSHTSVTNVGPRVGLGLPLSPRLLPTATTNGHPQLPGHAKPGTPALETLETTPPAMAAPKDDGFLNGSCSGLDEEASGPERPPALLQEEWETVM
Gonadotropin-releasing hormone receptor: Gonadotropin-releasing hormone receptor (Rattus norvegicus, UniProt P30969)
Sequence of UniProt P30969 (whole entry, looked up): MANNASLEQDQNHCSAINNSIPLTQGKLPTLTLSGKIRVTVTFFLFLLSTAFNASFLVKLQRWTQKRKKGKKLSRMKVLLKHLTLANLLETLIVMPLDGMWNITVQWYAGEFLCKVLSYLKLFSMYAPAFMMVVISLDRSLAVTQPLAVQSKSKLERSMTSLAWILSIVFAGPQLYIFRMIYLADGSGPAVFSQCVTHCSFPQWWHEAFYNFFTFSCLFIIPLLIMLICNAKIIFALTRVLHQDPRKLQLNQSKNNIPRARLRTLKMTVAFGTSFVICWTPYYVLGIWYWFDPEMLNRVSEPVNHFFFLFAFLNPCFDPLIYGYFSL
Sequence of UniProt Q96R45 (whole entry, looked up): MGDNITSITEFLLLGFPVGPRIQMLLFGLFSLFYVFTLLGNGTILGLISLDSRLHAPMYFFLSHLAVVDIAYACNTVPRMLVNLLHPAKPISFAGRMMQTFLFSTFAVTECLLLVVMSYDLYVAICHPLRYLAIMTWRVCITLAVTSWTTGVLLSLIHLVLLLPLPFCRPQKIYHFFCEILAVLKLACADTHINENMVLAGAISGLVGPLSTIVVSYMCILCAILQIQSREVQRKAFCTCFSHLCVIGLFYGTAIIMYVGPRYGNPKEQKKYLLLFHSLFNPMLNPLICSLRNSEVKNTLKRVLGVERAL
Sequence of UniProt Q9R1W5 (whole entry, looked up): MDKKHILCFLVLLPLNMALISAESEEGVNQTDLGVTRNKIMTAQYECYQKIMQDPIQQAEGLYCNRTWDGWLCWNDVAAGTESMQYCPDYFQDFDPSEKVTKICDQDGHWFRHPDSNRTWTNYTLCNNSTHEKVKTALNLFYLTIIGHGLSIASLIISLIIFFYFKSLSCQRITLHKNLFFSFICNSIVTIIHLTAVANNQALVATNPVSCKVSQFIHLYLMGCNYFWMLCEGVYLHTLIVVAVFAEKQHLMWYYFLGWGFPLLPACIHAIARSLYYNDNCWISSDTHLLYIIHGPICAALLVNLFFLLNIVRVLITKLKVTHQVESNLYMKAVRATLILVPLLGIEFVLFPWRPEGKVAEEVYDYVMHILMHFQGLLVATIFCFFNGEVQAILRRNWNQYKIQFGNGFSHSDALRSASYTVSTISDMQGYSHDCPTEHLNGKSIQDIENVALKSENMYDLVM
Sequence of UniProt Q9WUP1 (whole entry, looked up): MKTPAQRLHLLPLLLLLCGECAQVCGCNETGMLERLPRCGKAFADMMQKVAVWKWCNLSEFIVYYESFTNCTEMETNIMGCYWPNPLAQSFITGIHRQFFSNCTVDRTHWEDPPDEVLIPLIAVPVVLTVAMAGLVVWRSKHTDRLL
Sequence of UniProt P50391 (whole entry, looked up): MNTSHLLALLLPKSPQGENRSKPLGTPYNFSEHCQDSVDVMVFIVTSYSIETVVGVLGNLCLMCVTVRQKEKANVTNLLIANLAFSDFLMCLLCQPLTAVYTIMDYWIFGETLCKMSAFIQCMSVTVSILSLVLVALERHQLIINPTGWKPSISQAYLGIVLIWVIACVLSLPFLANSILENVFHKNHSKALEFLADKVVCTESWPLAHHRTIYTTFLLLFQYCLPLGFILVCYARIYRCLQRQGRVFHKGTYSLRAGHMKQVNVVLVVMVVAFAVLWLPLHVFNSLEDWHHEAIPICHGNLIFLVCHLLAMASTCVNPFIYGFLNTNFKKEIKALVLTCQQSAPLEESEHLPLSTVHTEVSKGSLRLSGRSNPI
Sequence of UniProt P43119 (whole entry, looked up): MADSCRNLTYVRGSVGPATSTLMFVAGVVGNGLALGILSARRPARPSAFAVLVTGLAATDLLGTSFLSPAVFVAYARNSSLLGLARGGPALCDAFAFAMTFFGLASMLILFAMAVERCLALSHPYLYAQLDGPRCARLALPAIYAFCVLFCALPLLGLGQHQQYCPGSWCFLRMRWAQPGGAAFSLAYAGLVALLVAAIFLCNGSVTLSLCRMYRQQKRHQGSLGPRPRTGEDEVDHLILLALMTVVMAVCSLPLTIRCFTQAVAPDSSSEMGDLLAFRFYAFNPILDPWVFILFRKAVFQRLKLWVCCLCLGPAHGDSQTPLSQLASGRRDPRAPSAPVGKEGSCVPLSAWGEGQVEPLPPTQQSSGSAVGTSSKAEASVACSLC
Sequence of UniProt P10276 (whole entry, looked up): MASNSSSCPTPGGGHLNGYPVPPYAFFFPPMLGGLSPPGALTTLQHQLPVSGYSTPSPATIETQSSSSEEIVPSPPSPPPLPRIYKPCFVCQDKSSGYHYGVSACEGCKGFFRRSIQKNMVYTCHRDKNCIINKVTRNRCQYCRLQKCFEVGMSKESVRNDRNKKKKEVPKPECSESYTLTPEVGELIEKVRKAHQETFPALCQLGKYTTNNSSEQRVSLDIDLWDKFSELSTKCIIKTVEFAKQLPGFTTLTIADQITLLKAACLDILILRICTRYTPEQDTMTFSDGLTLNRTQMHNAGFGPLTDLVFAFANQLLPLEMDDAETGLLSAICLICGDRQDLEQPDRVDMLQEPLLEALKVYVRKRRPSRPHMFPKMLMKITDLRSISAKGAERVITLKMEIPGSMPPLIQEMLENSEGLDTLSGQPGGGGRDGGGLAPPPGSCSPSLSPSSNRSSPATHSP
Sequence of UniProt O35659 (whole entry, looked up): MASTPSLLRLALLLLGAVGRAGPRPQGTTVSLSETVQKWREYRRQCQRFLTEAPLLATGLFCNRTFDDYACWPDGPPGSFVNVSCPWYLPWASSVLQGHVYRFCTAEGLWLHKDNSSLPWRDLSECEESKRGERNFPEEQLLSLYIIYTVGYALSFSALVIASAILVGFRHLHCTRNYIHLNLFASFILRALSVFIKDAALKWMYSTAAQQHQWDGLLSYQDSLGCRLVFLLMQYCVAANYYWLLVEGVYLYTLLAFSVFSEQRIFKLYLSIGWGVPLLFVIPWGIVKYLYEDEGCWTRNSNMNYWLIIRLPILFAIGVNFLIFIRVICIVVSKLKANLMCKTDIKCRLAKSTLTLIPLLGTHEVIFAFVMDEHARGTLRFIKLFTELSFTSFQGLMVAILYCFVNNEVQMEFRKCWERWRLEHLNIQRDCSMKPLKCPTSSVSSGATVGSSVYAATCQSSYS

Structure (SMILES) | target | assay | test system | conditions | EC50
Cc1cnc(C(=O)N[C@@H](Cc2cn(C(C)C)cn2)C(=O)N2CCC[C@H]2C(N)=O)cn1 | Thyrotropin-releasing hormone receptor | calcium signal, fluorescence | – | – | 12 nM
CCCCc1ccc(C2=Nn3c(nnc3-c3ccccc3OC)SC2)cc1 | CXCR4 | β-arrestin recruitment | – | – | 14100 nM
O=C(O)C1CC1 | FFAR3 | – | – | – | 107000 nM
CCOC(=O)CNc1ccc(C2=Nn3c(nnc3-c3ccccc3OCC)SC2)cc1 | CXCR4 | β-arrestin recruitment | – | – | > 5000 nM
CC1(C)CCC(C)(C)c2cc(/C(=N\O)c3cc4cc(C(=O)O)ccc4[nH]3)ccc21 | Retinoic acid receptor alpha (RARA, Homo sapiens, UniProt P10276) | reporter gene, luciferase | – | – | > 5000 nM
CN(C(=O)C(c1ccccc1)c1ccccc1)c1ccc(C(O)(C(F)(F)F)C(F)(F)F)cc1 | NR1H2 ligand-binding domain | – | – | concentration not given | > 10000 nM
CC[C@H](C)[C@H](NC(=O)[C@H](CCC(N)=O)NC(=O)[C@H](Cc1c[nH]cn1)NC(=O)[C@H](C)NC(=O)[C@H](CC(C)C)NC(=O)[C@H](CCCCN)NC(=O)[C@H](CCC(N)=O)NC(=O)[C@@H](NC(=O)[C@@H](NC(=O)[C@@H]1CSSC[C@H](NC(=O)CNC(=O)[C@H](Cc2ccccc2)NC(=O)[C@H](CO)NC(=O)[C@H](CCCNC(=N)N)NC(=O)[C@H](CC(C)C)NC(=O)CNC(=O)[C@H](CCC(N)=O)NC(=O)[C@H](Cc2ccccc2)NC(=O)[C@H](CC(N)=O)NC(=O)[C@H](CC(N)=O)NC(=O)[C@H](CCSC)NC(=O)[C@H](CO)NC(=O)[C@H](CCC(N)=O)NC(=O)[C@H](CCCNC(=N)N)NC(=O)[C@@H](N)Cc2ccc(O)cc2)C(=O)N[C@@H](CCCNC(=N)N)C(=O)N[C@@H](Cc2ccccc2)C(=O)NCC(=O)N[C@@H]([C@@H](C)O)C(=O)N1)[C@@H](C)O)C(C)C)C(=O)N[C@@H](Cc1ccc(O)cc1)C(=O)N[C@@H](CCC(N)=O)C(=O)N[C@@H](Cc1ccccc1)C(=O)N[C@H](C(=O)N[C@@H](CC(=O)O)C(=O)N[C@@H](CCCCN)C(=O)N[C@@H](CC(=O)O)C(=O)N[C@@H](CCCCN)C(=O)N[C@@H](CC(=O)O)C(=O)N[C@@H](CC(N)=O)C(=O)N[C@H](C(=O)N[C@@H](C)C(=O)N1CCC[C@H]1C(=O)N[C@@H](CCCNC(=N)N)C(=O)N[C@@H](CO)C(=O)N[C@@H](CCCCN)C(=O)N[C@H](C(=O)N[C@@H](CO)C(=O)N1CCC[C@H]1C(=O)N[C@@H](CCC(N)=O)C(=O)NCC(=O)N[C@@H](Cc1ccc(O)cc1)C(N)=O)[C@@H](C)CC)C(C)C)[C@@H](C)O | Calcrl/Ramp3 (Mus musculus, UniProt Q9R1W5+Q9WUP1) | cAMP production | COS-7, transfected | 15 min, 37 °C, added: IBMX 1 mM | 0.55 nM
CC(C)=CC(=O)O | FFAR3 | – | – | – | 229000 nM
CCCC[C@H](NC(=O)[C@H](CO)NC(=O)[C@H](CC(N)=O)NC(=O)[C@H](CC(C)C)NC(=O)[C@H](Cc1c[nH]cn1)NC(=O)[C@H](CCCCN)NC(=O)CNC(=O)[C@H](CC(C)C)NC(=O)[C@H](CC(N)=O)NC(=O)[C@H](Cc1c[nH]cn1)NC(=O)[C@H](CCCC)NC(=O)[C@H](CC(C)C)NC(=O)[C@H](CCC(N)=O)NC(=O)[C@@H](NC(=O)[C@H](CCC(=O)O)NC(=O)[C@H](CO)NC(=O)[C@@H](NC(=O)[C@@H](N)CO)C(C)C)[C@@H](C)CC)C(=O)N[C@@H](CCC(=O)O)C(=O)N[C@@H](CCCNC(=N)N)C(=O)N[C@H](C(=O)N[C@@H](CCC(=O)O)C(=O)N[C@@H](Cc1c[nH]c2ccccc12)C(=O)N[C@@H](CC(C)C)C(=O)N[C@@H](CCCNC(=N)N)C(=O)N[C@@H](CCCCN)C(=O)N[C@@H](CCCCN)C(=O)N[C@@H](CC(C)C)C(=O)N[C@@H](CCC(N)=O)C(=O)N[C@@H](CC(=O)O)C(=O)N[C@H](C(=O)N[C@@H](Cc1c[nH]cn1)C(=O)N[C@@H](CC(N)=O)C(=O)N[C@@H](Cc1ccccc1)C(=O)N[C@H](C(=O)N[C@@H](C)C(=O)N[C@@H](CC(C)C)C(=O)O)C(C)C)C(C)C)C(C)C | PTH1R | reporter gene, luciferase | – | – | 0.676 nM
O=C(O)/C=C/c1cccc(NC(=O)c2cc(-c3ccccc3)ccc2F)c1 | Prostacyclin receptor (PTGIR, Homo sapiens, UniProt P43119) | calcium signal, fluorescence | – | – | > 10000 nM
CC(C)CN(NC(=O)[C@H](CCCNC(=N)N)NC(=O)[C@H](Cc1ccc(O)cc1)NC(=O)CCCCCCC(=O)N[C@@H](Cc1ccc(O)cc1)C(=O)N[C@@H](CCCNC(=N)N)C(=O)NN(CC(C)C)C(=O)N[C@@H](CCCNC(=N)N)C(=O)N[C@@H](Cc1ccc(O)cc1)C(N)=O)C(=O)N[C@@H](CCCNC(=N)N)C(=O)N[C@@H](Cc1ccc(O)cc1)C(N)=O | Neuropeptide Y receptor type 4 (NPY4R, Homo sapiens, UniProt P50391) | reporter gene, luciferase | – | – | 220 nM
CCCn1cnc(C[C@H](NC(=O)c2cnc(C)cn2)C(=O)N2CCC[C@H]2C(N)=O)c1 | Thyrotropin-releasing hormone receptor | calcium signal, fluorescence | – | – | 4460 nM
N=C(N)NCCC[C@@H](NC(=O)[C@H](Cc1c[nH]cn1)NC(=O)[C@H](CO)NC(=O)[C@H](Cc1c[nH]c2ccccc12)NC(=O)[C@H](Cc1c[nH]cn1)NC(=O)[C@@H]1CCC(=O)N1)C(=O)N[C@@H](Cc1c[nH]c2ccccc12)C(=O)N[C@@H](Cc1ccc(O)cc1)C(=O)N1CCC[C@H]1C(=O)NCC(N)=O | Gonadotropin-releasing hormone receptor | inositol phosphate accumulation | HEK293 expressing Gonadotropin-releasing hormone receptor | 60 min, 37 °C, added: 10 mM LiCl | 1.6 ± 0.2 nM
N=C(N)NCCC[C@H](NC(=O)[C@H](Cc1ccccc1)NC(=O)[C@@H](N)CO)C(=O)N[C@@H](CC(N)=O)C(N)=O | Neuropeptide S receptor (NPSR1, Homo sapiens, UniProt Q6W5P4, N107I) | cAMP, TR-FRET | – | – | 129 nM
CC[C@H](C)[C@H](NC(=O)[C@H](CO)NC(=O)[C@H](CCCCN)NC(=O)CNC(=O)[C@H](CCCCN)NC(=O)[C@H](CC(=O)O)NC(=O)[C@H](Cc1c[nH]cn1)NC(=O)[C@H](CC(C)C)NC(=O)[C@H](CC(C)C)NC(=O)[C@H](CCC(N)=O)NC(=O)[C@H](Cc1c[nH]cn1)NC(=O)[C@H](CCC(=O)O)NC(=O)[C@H](CO)NC(=O)[C@@H](NC(=O)[C@H](C)N)C(C)C)C(=O)N[C@@H](CCC(N)=O)C(=O)N[C@@H](CC(=O)O)C(=O)N[C@@H](CC(C)C)C(=O)N[C@@H](CCC(=O)O)C(=O)N[C@@H](CCCNC(=N)N)C(=O)N[C@H](C(=O)N[C@@H](CCC(=O)O)C(=O)N[C@@H](Cc1c[nH]c2ccccc12)C(=O)N[C@@H](CC(C)C)C(=O)N[C@@H](CCCNC(=N)N)C(=O)N[C@@H](CCCCN)C(=O)N[C@@H](CCCCN)C(=O)N[C@@H](CC(C)C)C(=O)N[C@@H](CCC(N)=O)C(=O)N[C@@H](CC(=O)O)C(=O)N[C@H](C(=O)N[C@@H](Cc1c[nH]cn1)C(=O)N[C@@H](CC(N)=O)C(=O)N[C@@H](Cc1ccccc1)C(=O)N[C@@H](CCCCNC(=O)c1ccc2c(c1)C1(OC2=O)c2ccc(N(C)C)cc2Oc2cc(N(C)C)ccc21)C(N)=O)C(C)C)C(C)C | PTH1R | cAMP formation, GloSensor | HEK293 GP2.3 | 15 min | 0.16 ± 0.04 nM
CN(C(=O)C1CC1)c1ccc(C(O)(C(F)(F)F)C(F)(F)F)cc1 | NR1H2 ligand-binding domain | – | – | concentration not given | > 10000 nM
CC(C=O)Cc1ccc(C(C)(C)C)cc1 (stereo not shown) | Olfactory receptor 2A7 (OR2A7, Homo sapiens, UniProt Q96R45) | GFP reporter gene | yeast expressing OR2A7 | 4 h, 1% DMSO | 110000 nM
CC(C)C[C@H](NC(=O)[C@@H](Cc1c[nH]c2ccccc12)NC(=O)[C@H](Cc1ccc(O)cc1)NC(=O)[C@H](CO)NC(=O)[C@H](Cc1c[nH]c2ccccc12)NC(=O)[C@H](Cc1c[nH]cn1)NC(=O)[C@@H]1CCC(=O)N1)C(=O)N[C@@H](CCCNC(=N)N)C(=O)N1CCC[C@H]1C(=O)NCC(N)=O | Gonadotropin-releasing hormone receptor | inositol phosphate accumulation | HEK293 expressing Gonadotropin-releasing hormone receptor | 60 min, 37 °C, added: 10 mM LiCl | 0.14 ± 0.01 nM
CC[C@H](C)[C@H](NC(=O)[C@H](CC(N)=O)NC(=O)[C@H](CC(N)=O)NC(=O)[C@H](CCCNC(=N)N)NC(=O)[C@H](CC(N)=O)NC(=O)[C@H](CCCNC(=N)N)NC(=O)[C@H](CCCCN)NC(=O)[C@@H](NC(=O)[C@H](CC(N)=O)NC(=O)[C@H](CCSC)NC(=O)[C@H](CC(C)C)NC(=O)[C@H](Cc1c[nH]c2ccccc12)NC(=O)[C@H](CCC(N)=O)NC(=O)[C@@H](NC(=O)[C@H](Cc1ccccc1)NC(=O)[C@H](CC(=O)O)NC(=O)[C@H](CCC(N)=O)NC(=O)[C@H](C)NC(=O)[C@H](CCCNC(=N)N)NC(=O)[C@H](CCCNC(=N)N)NC(=O)[C@H](CO)NC(=O)[C@H](CC(=O)O)NC(=O)[C@H](CC(C)C)NC(=O)[C@H](Cc1ccc(O)cc1)NC(=O)[C@H](CCCCN)NC(=O)[C@H](CO)NC(=O)[C@H](Cc1ccc(O)cc1)NC(=O)[C@H](CC(=O)O)NC(=O)[C@H](CO)NC(=O)[C@@H](NC(=O)[C@H](Cc1ccccc1)NC(=O)[C@@H](NC(=O)CNC(=O)[C@H](CCC(=O)O)NC(=O)[C@H](CO)NC(=O)[C@@H](N)Cc1c[nH]cn1)[C@@H](C)O)[C@@H](C)O)C(C)C)[C@@H](C)O)C(=O)N[C@@H](C)C(=O)O | Glucagon-like peptide 1 receptor (Mus musculus, UniProt O35659) | cAMP, TR-FRET | – | – | 3.9 nM
